Published values gathered from unrelated publications.
A part holds a random share of what one study measured.

Study 1 — method: protein binding microarray; form: double-stranded DNA, one strand shown; medium: in vitro; tested at: not given; reference: not given; direction: higher = stronger binding
Target: Histone acetyltransferase KAT6A, winged helix 2, GST fusion (KAT6A, Homo sapiens, UniProt Q92794, residues 85-181)
Notes: 8-mer, flanks averaged, mean of 2 arrays, mostly near background
Construct (chain): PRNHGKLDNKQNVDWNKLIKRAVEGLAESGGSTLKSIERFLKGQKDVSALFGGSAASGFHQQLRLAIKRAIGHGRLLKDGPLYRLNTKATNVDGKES
`GCTGCTCC` gave an E-score of 0.0783.
`CGTGAGGC` gave an E-score of -0.0243.
`TCAGACCA` has an E-score of -0.0616.
The E-score of `ATTTGTGA` is reported as -0.0221.
With `GCCTCACC` the E-score was 0.0963.
`ATTAGTTC` has an E-score of -0.0967.

Study 2 — method: universal PBM; form: double-stranded DNA, one strand shown; medium: in vitro; tested at: 600 nM; direction: higher = stronger binding
Target: Sal-like protein 4, full length isoform A (SALL4, Homo sapiens, UniProt Q9UJQ4, residues 1-1053)
UniProt Q9UJQ4, sequence (whole entry, looked up): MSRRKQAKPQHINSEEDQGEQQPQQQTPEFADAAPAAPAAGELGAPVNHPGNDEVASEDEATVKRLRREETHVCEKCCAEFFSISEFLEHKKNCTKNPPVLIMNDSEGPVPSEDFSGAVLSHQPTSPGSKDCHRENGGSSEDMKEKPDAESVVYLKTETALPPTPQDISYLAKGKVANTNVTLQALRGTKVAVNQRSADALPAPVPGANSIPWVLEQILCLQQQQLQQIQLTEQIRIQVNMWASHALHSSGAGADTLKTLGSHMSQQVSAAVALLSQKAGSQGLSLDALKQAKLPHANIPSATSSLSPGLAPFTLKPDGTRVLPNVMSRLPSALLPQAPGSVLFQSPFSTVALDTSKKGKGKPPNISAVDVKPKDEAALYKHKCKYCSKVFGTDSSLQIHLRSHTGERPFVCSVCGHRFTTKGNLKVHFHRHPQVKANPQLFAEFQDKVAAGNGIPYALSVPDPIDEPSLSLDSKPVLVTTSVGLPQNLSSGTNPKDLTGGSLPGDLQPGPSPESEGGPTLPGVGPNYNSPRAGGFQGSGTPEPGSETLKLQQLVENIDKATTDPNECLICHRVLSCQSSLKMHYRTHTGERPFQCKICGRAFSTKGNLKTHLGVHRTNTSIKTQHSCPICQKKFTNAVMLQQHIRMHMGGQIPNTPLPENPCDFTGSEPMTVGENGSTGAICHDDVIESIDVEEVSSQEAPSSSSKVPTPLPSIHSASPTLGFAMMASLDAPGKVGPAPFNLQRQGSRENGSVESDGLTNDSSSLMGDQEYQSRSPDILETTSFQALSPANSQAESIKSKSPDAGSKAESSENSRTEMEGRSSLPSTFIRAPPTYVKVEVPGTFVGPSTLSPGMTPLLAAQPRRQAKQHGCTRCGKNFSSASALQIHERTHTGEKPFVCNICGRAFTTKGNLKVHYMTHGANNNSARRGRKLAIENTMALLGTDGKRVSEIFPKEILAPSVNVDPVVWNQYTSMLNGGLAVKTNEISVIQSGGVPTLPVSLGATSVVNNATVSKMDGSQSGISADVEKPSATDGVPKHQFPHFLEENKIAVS
Notes: 8-mer, flanks averaged, mean of replicates
The E-score of `AGCCCTTG` is reported as -0.209.
The E-score of `ATAGTCAG` is reported as 0.134.
For `GGCACACA`, the E-score was -0.145.
`GGATCATA` gave an E-score of 0.132.
With `CCGGACAA` the E-score was -0.194.

Study 3 — method: protein-binding microarray; form: double-stranded DNA, one strand shown; medium: in vitro; tested at: 250 nM; notes: 60-bp whole probe; added: salmon DNA 0.4 mg/ml; reference: random background probes; direction: higher = stronger binding
Target: Interferon regulatory factor 7, full length, phosphomimetic (IRF7, Homo sapiens, UniProt Q92985, residues 1-503, S101K/S471D/S472D/S475D/S476D/S477D/S483D/S484D/S487D)
Target sequence (chain): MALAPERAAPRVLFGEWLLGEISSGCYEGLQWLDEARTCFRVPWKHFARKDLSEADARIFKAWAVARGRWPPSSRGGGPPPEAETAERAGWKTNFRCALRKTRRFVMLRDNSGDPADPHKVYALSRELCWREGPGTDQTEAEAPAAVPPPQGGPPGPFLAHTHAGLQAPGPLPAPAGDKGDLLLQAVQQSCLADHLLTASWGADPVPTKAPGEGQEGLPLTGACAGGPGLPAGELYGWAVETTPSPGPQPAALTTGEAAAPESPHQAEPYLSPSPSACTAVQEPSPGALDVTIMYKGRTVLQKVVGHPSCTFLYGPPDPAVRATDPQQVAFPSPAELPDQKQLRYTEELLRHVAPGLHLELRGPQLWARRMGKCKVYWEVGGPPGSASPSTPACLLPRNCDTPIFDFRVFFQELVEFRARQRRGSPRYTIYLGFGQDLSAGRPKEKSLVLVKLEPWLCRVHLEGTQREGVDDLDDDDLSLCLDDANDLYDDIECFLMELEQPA
With `GCCTAGCACTCAAATTCCAAGTTCATACTGTGCTAGGTCTTGATTCGCTTGACGCTGCTG` the log fluorescence was 0.925 z-score.
For `GCCTAGCACTTAGATCTCAGTATCGTTTAGTGCTAGGTCTTGATTCGCTTGACGCTGCTG`, the log fluorescence was 1.23 z-score.
`GCCTAGCACATAGATATGCCAAATCTGTGTGTGCTAGTCTTGATTCGCTTGACGCTGCTG` gave a log fluorescence of -0.242 z-score.

Mixed results
`PhoQ, residues 284 288 289 292 302 303 GNNTDL` has a fold induction of 2.17 (PhoP, residues 12 14 15 18 19 LYHSL (Escherichia coli, UniProt P23836); Sort-seq, item: YFP reporter; E. coli; PhoQ-PhoP variant library, added: 10 µM Mg2+; reference: high Mg2+ state, higher = stronger signaling).

Repeated from above (study 3):
For `GCCTAGCACTTAGATCTCAGTATCGTTTAGTGCTAGGTCTTGATTCGCTTGACGCTGCTG`, the log fluorescence was 1.23 z-score.
With `GCCTAGCACTCAAATTCCAAGTTCATACTGTGCTAGGTCTTGATTCGCTTGACGCTGCTG` the log fluorescence was 0.925 z-score.
